Measured values of several laboratories.
Each numbered part is a random draw from the data of one study; scales do not carry over between parts. Several values in a cell are separate wells, animals, samples, runs or records.

Sample 1 — cell line: HCC1569; read-out: CDK1 Thr14 phosphorylation; technique: in-cell western; tested at: 111.11 nM; reading: lower = stronger inhibition; endpoint: phospho-CDK1 (Thr14) level
Cc1ccc(O)c(C)c1-c1cnc2[nH]c(-c3cnc(N4CCC(CN5CCN(c6cc7c(cc6F)c(N6CCC(=O)NC6=O)nn7C)CC5)CC4)nc3)cc2c1C#N: 53.1 a.u. and 60.4 a.u.
Cc1ccc(O)c(C)c1-c1cnc2[nH]c(-c3cnc(N4CC5(CC(CN6CCN(c7ccc(NC8CCC(=O)NC8=O)cc7F)CC6)C5)C4)nc3)cc2c1C#N (centres unmarked): 90.3 a.u. and 89.8 a.u.
Cc1ccc(O)c(C)c1-c1cnc2[nH]c(-c3cnc(N4CCC(CN5CCN(c6cc7c(cc6F)n(C6CCC(=O)NC6=O)c(=O)n7C)CC5)CC4)nc3)cc2c1C#N (centres unmarked): 45.5 a.u. and 39.6 a.u.
Cc1ccc(O)c(C)c1-c1cnc2[nH]c(-c3cnc(N4CCC5(CC4)CC(N4CCN(c6ccc(NC7CCC(=O)NC7=O)cc6F)CC4)CO5)nc3)cc2c1C#N (centres unmarked): 92.9 a.u. and 89.7 a.u.
Cc1ccc(O)c(C)c1-c1cnc2[nH]c(-c3cnc(N4CCC(CN5CCC(c6ccc(NC7CCC(=O)NC7=O)cc6F)CC5)CC4)nc3)cc2c1C#N (centres unmarked): 62.7 a.u. and 57.9 a.u.

Sample 2 — cell line: AsPC-1; technique: in-cell ELISA; endpoint: phospho-ERK1/2 level
SMILES: Cc1ncsc1-c1ccc(C2(NC(=O)C3CC(O)CN3C(=O)C(NC(=O)c3ccc(COc4c(-c5c(C)c(F)cc6[nH]ncc56)c(C5CC5)cc5c(N6CC7CC6CN7)nc(OC6CCOCC6)nc45)cc3)C(C)(C)C)CC2)cc1 (centres unmarked)
10 nM, individual replicates: 107% and 88% and 102% and 103% and 94.4% and 86.8%
1 nM, individual replicates: 100% and 94.8% and 96.3% and 103% and 98.5%
300 pM, per-experiment values: 92.4% and 100% and 103%
100 nM, per-experiment values: 86.4% and 98.9% and 83.8%
3 nM, per-experiment values: 98.5% and 99.4% and 90.6%
300 nM, per-experiment values: 64.7% and 57.5% and 95.2%

Sample 3 — technique: microarray; reference: untreated; endpoint: log2 fold change
Compound: COCCCCCCC1CC2C(CCC3(C)C(O)CCC23)c2ccc(O)cc21 (centres unmarked)
PANC-1; item: ISG20L1; 50 µM: 0.864
SK-OV-3; item: ACTA2; 50 µM: -0.449
A549; item: ADAMTS14; 50 µM: 0.185
PANC-1; item: GADD45A; 10 µM: 0.145
A549; item: GZMK; 50 µM: 3.71
SK-OV-3; item: CCL11; 50 µM: 0
A549; item: GZMK; 10 µM: 3.91
SK-OV-3; item: ADAMTS14; 50 µM: 0.0918
SK-OV-3; item: UBB; 50 µM: -0.272
PANC-1; item: ADAMTS8; 10 µM: -0.982

Sample 4 — read-out: thermal unfolding; technique: differential scanning fluorimetry; tested at: 5.5 µM; reading: higher = more unfolded; endpoint: SYPRO Orange fluorescence
SMILES: C[C@@H]1CN(c2ccc(-c3cc(C(=O)NCCOCCOCCOCCOCCNC(=O)Cn4cc(-c5[nH]cc(C(=O)N[C@@H](CC(N)=O)c6ccc(F)c(Cl)c6)c5-c5ccc(Cl)cc5F)cn4)ccc3F)cc2NC(=O)c2c[nH]c(=O)cc2C(F)(F)F)C[C@H](C)N1C
WDR5: WD repeat-containing protein 5 (WDR5, Homo sapiens, UniProt P61964)
DCAF1: DDB1- and CUL4-associated factor 1 (DCAF1, Homo sapiens, UniProt Q9Y4B6)
Chain of UniProt Q9Y4B6 (whole entry, looked up): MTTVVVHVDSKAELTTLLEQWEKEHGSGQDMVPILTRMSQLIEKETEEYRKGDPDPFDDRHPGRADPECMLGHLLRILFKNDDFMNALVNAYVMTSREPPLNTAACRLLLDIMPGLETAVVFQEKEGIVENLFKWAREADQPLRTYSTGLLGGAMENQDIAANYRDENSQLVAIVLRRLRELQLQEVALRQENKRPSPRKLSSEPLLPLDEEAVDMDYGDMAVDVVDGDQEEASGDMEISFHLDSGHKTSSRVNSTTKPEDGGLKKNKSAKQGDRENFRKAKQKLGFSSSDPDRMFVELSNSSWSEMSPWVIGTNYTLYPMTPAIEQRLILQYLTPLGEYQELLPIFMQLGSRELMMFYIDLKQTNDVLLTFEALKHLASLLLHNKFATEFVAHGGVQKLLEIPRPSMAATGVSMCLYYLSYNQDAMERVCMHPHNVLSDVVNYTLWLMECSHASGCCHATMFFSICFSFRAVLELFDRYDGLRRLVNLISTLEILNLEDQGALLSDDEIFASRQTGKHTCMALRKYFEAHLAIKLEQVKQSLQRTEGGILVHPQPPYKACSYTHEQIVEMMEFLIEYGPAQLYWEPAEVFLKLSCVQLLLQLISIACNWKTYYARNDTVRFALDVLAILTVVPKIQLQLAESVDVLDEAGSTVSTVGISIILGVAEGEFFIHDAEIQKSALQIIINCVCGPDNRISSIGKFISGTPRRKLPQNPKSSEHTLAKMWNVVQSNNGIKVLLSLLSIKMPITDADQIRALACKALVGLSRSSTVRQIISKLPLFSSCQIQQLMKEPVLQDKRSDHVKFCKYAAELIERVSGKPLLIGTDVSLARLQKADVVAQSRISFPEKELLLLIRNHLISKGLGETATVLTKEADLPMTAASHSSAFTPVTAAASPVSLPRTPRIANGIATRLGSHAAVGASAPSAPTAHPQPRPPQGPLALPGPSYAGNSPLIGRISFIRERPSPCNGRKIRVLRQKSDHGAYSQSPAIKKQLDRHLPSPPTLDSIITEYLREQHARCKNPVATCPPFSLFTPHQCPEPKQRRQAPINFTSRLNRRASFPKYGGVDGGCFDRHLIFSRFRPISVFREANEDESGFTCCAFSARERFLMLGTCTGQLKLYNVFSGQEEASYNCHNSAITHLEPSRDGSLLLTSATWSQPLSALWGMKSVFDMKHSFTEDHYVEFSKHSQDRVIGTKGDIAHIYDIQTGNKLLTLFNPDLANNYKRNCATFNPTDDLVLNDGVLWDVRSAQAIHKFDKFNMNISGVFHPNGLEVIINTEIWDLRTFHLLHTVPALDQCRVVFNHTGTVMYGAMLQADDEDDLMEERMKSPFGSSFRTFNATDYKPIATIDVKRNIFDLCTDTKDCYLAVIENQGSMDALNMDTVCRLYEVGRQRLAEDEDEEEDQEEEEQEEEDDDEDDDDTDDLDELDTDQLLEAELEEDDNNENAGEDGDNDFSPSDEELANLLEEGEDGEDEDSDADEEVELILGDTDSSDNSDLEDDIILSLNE
WDR5; 51.2 °C: 14400 a.u.
WDR5; 45.6 °C: 14300 a.u.
DCAF1; 80.61 °C: 43700 a.u.
WDR5; 27.8 °C: 14900 a.u.
DCAF1; 84.21 °C: 40600 a.u.
DCAF1; 83.41 °C: 41300 a.u.
DCAF1; 64.21 °C: 54600 a.u.
DCAF1; 51.4 °C: 15300 a.u.
DCAF1; 32.8 °C: 8300 a.u.
DCAF1; 82.21 °C: 42400 a.u.
WDR5; 80.41 °C: 24600 a.u.
